Literature values, collected from citations in different studies.
Compare with care: the assays were run in different laboratories. Numbers after ± are the reported error.

Compound | organism | assay | test system | setting | IC50 [µM]
Nc1nc(O)c2ncn(COC(CO)CO)c2n1 | human cytomegalovirus | viral replication, inhibitor, colorimetric | – | – | 9
CCCCCCCCCCCCCCCCOP(=O)([O-])OCC[N+](C)(C)C | Trypanosoma brucei | parasite growth | – | in vitro | 35.5
Cc1ccc(C(=O)Nc2ccc(S(=O)(=O)O)c3cc(S(=O)(=O)O)cc(S(=O)(=O)O)c23)cc1NC(=O)c1cccc(NC(=O)Nc2cccc(C(=O)Nc3cc(C(=O)Nc4ccc(S(=O)(=O)O)c5cc(S(=O)(=O)O)cc(S(=O)(=O)O)c45)ccc3C)c2)c1 | Trypanosoma brucei brucei | cell growth | GUTat3.1 | – | 0.066 ± 0.0052
CC(C)Oc1cc(-n2nc(C(C)(C)C)oc2=O)c(Cl)cc1Cl | Toxoplasma gondii | intracellular growth, inhibitor | wild type Nluc | – | 131 ± 3.9
Cc1nc2ccccc2c(O)c1CC=C(Cl)Cl | Trypanosoma brucei brucei | – | Squib 427 | – | > 32
Cc1cccc2nc(-c3ccc(-c4ccc(CN5CC(C)OC(C)C5)cc4)cc3)[nH]c12 (stereo not shown) | Plasmodium falciparum | – | 3D7 | 72 h, whole cell | 0.522
C=C[C@@]1(C)COC(=O)[C@]12O[C@]1(c3ccccc3)[C@H](C2=O)[C@H]2[C@H]([C@H](C)CCC=C(C)C)CC=C(C)[C@H]21 | HIV | viral replication | – | – | 1.7
N=C(N)c1ccc(N=NNc2ccc(C(=N)N)cc2)cc1 | Trypanosoma equiperdum | cell growth | IVM-t1 | – | 0.011 ± 0.0029
Cc1cc(Nc2ccc(C)c(Cl)c2)n2nc(C(F)(F)F)nc2n1 | Trypanosoma brucei brucei | – | Squib 427 | – | > 32
N=C(N)c1cccc(/C=N/N=C(\N)N/N=C/c2cccc(C(=N)N)c2)c1 | Trypanosoma brucei | parasite growth | – | – | 20
COc1ccc2sc(N(Cc3cccnc3)C(=O)c3ccc(C#N)cc3)nc2c1 | Trypanosoma brucei brucei | – | Squib 427 | – | > 32
C=CCCCCC(=O)N(C)[C@H](C(=O)N(C)[C@H](C(=O)N(C)[C@H](C(=O)N(C)[C@@H](C)C(=O)N(C)[C@@H](Cc1ccccc1)C(=O)OC)C(C)C)C(C)C)C(C)C | Leishmania donovani | – | – | – | > 14
NCCCC(N)(C(=O)O)C(F)F (stereo not shown) | Trypanosoma brucei rhodesiense | cell growth | IL1501 | – | 46 ± 17.1
CCOC(=O)c1c(C)n(-c2ccccc2)c2ccc(OC(=O)c3cc(OC)c(OC)c(OC)c3)cc12 | Trypanosoma brucei rhodesiense | – | STIB 900 | – | 10.8
Cc1cc2nc(N)[nH]c2cc1C | Pseudomonas aeruginosa | RhlR quorum sensing | PAO1 reporter | – | 12.5
CCOc1cccc(C(=O)Nc2ccc(-c3nc4ccccc4[nH]3)cc2)c1 | Trypanosoma brucei brucei | – | Squib 427 | – | > 32
N=C(N)c1ccc(OCCCCCOc2ccc(C(=N)N)cc2)cc1 | Trypanosoma equiperdum | cell growth | IVM-t1 | – | 0.0013 ± 0.0003
Cn1c(=O)n(C)c2cc(CNCCNc3ccnc4cc(Cl)ccc34)ccc21 | Trypanosoma brucei brucei | – | Squib 427 | – | 11.5
C=CCCCCCC(=O)N(C)[C@H](C(=O)N(C)[C@H](C(=O)N(C)[C@H](C(=O)N(C)[C@@H](C)C(=O)N(C)[C@@H](Cc1ccccc1)C(=O)O)C(C)C)C(C)C)C(C)C | Leishmania donovani | – | – | – | 4.1

Excerpt of the above:
Compound | organism | assay | test system | setting | IC50 [µM]
C=C[C@@]1(C)COC(=O)[C@]12O[C@]1(c3ccccc3)[C@H](C2=O)[C@H]2[C@H]([C@H](C)CCC=C(C)C)CC=C(C)[C@H]21 | HIV | viral replication | – | – | 1.7
N=C(N)c1ccc(N=NNc2ccc(C(=N)N)cc2)cc1 | Trypanosoma equiperdum | cell growth | IVM-t1 | – | 0.011 ± 0.0029
